# Experimental data collected from several papers.
# Numbered parts are unrelated; each lists some results of a single study. Changes are numbered by the printed parent chain.

# Series 1
# Target: CCNE1, cyclin fold, Cln2 fusion (human)
# Technique: yeast growth competition, sequencing
# Matrix: yeast
# Setting: strong parent motif
# Relative to: not given
# Reading: higher = stronger binding
# Starting sequence: viral docking peptide; KGVKRKLFAEDSS
Variant,normalised enrichment score
KGVKRKLFAEWSS [D11W],6.41
KGVKRKLFAEMSS [D11M],6.74
KGVKRKLFAQDSS [E10Q],6.7
KGCKRKLFAEDSS [V3C],5.95
KWVKRKLFAEDSS [G2W],6.79
KGVKRKLEAEDSS [F8E],0.521
KGVKRKLVAEDSS [F8V],0.535
KGVKRKLFPEDSS [A9P],7.26
KGVKRKLFAEDLS [S12L],7.61
KGVKRKLFAEDMS [S12M],7.22
KGVQRKLFAEDSS [K4Q],5.86
KGVKRKSFAEDSS [L7S],0.103
KGQKRKLFAEDSS [V3Q],0.537
KRVKRKLFAEDSS [G2R],6.81
KGVKRKLFAEESS [D11E],7.41
KGVKRKLFAPDSS [E10P],7.22
KGVKKKLFAEDSS [R5K],4.85
KGVKFKLFAEDSS [R5F],0.495
KGVKKKLLAEDSS [R5K F8L],0.533
KGVKRKLFASDSS [E10S],6.67
KGVKRKFFAEDSS [L7F],0.511

# Series 2
# Target: HLA class I histocompatibility antigen, A alpha chain, allele A*80:01 (Homo sapiens, UniProt P04439)
# Observed: peptide-MHC binding
# Form: peptide
# Concentration: concentration not given
Molecule,binding
WSHRVTSPK,inactive
GVNDTEAHA,inactive
SVFELSNFA,inactive

# Series 3
# Target: UBE2W UBC core domain (UniProt Q96B02)
# Technique: yeast two-hybrid
# Matrix: yeast
# Setting: mostly zero background
# Relative to: not given
# Reading: higher = stronger interaction
# B1: CUL9 RING domain (UniProt Q8IWT3); chain AQAVPVRPDHCPVCVSPLGCDDDLPSLCCMHYCCKSCWNEYLTTRIEQNLVLNCTCPIADCPAQPTGAFIR
# B2: PHF21A RING domain (UniProt Q96BD5); chain SPTSTDGDIHEDFCSVCRKSGQLLMCDTCSRVYHLDCLDPPLKTIPKGMWICPRCQDQMLKKEEAIPW
# B3: TRIM63 RING domain (UniProt Q969Q1); chain PMENLEKQLICPICLEMFTKPVVILPCQHNLCRKCANDIFQAANPYWTSRGSSVSMSGGRFRCPTCRHEVIMDRHGV
# Residues (chain): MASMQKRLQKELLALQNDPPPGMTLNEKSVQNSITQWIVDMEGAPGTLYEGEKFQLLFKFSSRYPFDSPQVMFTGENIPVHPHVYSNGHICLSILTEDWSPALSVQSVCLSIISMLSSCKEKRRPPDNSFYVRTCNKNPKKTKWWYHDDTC
Molecule,lacZ reporter activity
KTLSRFGIQPCSICLGDAKDPVCLPCDHVHCLRCLRAWFASEQMICPYCLTALPDEFSPA (RNF213 RING domain (UniProt Q63HN8)),0
QLQDIKEQTMCPVCLDRLKNMIFLCGHGTCQLCGDRMSECPICRKAIERRILLY (MIB1 RING domain (UniProt Q86YT6)),8280
B1 (CUL9 RING domain),0
FASPPDSNFVCSVCHGVLKRPARLPCSHIFCKKCILRWLARQKTCPCCRKEVKRKKVVH (RNF151 RING domain (UniProt Q2KHN1)),0
VTLSLTLPITCHICLGKVRQPVICINNHVFCSICIDLWLKNNSQCPACRVPITPENPCK (OBI1 RING domain (UniProt Q5W0B1)),0
B2 (PHF21A RING domain),0
QLRRLQEERTCKVCMDKEVSIVFIPCGHLVVCKDCAPSLRKCPICRSTIKGTVRTF (BIRC3 RING domain (UniProt Q13489)),9550
PEELQAMDNVCIICREEMVTGAKRLPCNHIFHTSCLRSWFQRQQTCPTCRMDVLRASLPA (SYVN1 RING domain (UniProt Q86TM6)),0
B3 (TRIM63 RING domain),0
DAIPSLSECQCGICMEILVEPVTLPCNHTLCKPCFQSTVEKASLCCPFCRRRVSSWTRYH (RNF168 RING domain (UniProt Q8IYW5)),0

# Series 4
# Target: Sal-like protein 4, full length isoform B (SALL4, Homo sapiens, UniProt Q9UJQ4-2, residues 1-616)
# Technique: universal PBM
# Form: double-stranded DNA, one strand shown
# Matrix: in vitro
# Concentration: not given
# Setting: 8-mer, flanks averaged, mean of replicates
# Reading: higher = stronger binding
Strand,E-score
GCCGGTCA,-0.272
GTGCGAAA,0.0384
GATTCCCC,-0.228
CTTTGTTC,0.0788
ACGGACGG,-0.294
GAGAATAC,0.103
ATGATGTC,0.0652
GACTTGAC,-0.0521

# For quick reference, copied from above (series 1):
Variant,normalised enrichment score
KGVKRKLVAEDSS [F8V],0.535
KGVKRKLFPEDSS [A9P],7.26
KGVKRKLFAEDLS [S12L],7.61
KGVKRKLFAEDMS [S12M],7.22
KGVQRKLFAEDSS [K4Q],5.86
KGVKRKSFAEDSS [L7S],0.103
